Measured values of several laboratories.
Lines come from different studies, so protocols differ. “And” joins repeats or separate records; there may be more than shown. ± marks the error that the study gave.
GBA1 R534H: Lysosomal acid glucosylceramidase (GBA1, Homo sapiens, UniProt P04062, R534H)
Chain of UniProt P04062 (whole entry, unmodified, looked up): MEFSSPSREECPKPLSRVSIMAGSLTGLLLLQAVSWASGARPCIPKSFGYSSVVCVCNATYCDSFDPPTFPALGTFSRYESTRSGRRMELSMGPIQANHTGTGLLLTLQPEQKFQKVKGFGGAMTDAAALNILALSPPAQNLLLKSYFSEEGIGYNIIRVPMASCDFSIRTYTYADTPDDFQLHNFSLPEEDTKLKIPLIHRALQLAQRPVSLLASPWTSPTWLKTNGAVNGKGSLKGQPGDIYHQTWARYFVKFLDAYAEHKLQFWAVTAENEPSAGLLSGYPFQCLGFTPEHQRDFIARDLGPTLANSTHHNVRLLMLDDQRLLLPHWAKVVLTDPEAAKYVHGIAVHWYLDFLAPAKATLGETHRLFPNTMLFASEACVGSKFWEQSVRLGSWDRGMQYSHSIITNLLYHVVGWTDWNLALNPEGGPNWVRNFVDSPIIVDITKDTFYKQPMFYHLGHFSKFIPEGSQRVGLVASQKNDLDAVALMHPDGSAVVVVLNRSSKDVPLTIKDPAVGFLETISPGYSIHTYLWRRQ
Chain of UniProt P42768 (whole entry, looked up): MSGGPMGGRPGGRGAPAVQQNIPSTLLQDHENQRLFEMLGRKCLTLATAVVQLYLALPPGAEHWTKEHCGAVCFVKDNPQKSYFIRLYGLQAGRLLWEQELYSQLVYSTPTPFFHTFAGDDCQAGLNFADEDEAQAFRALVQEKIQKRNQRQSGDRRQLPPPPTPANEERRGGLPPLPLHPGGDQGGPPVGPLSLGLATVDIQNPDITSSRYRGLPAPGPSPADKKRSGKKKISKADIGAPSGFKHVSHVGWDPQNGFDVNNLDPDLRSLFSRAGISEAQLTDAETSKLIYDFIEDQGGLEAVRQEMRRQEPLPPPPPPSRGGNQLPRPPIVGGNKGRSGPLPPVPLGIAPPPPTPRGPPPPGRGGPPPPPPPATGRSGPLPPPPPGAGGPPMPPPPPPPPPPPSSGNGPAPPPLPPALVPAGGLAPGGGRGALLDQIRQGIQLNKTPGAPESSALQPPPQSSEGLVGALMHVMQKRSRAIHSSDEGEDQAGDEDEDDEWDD

| Structure (SMILES) | target or system | assay | test system | conditions | how to read | quantity | result |
| --- | --- | --- | --- | --- | --- | --- | --- |
| COc1ccccc1N1CCN(C(=O)c2ccc(Cl)c([N+](=O)[O-])c2)CC1 | Saccharomyces cerevisiae | growth | sec14∆/SEC14 diploid |  |  | IC50 | 76100 ± 5300 nM |
| COc1cccc(CNC(=O)CCC2CCCN(C/C=C/c3ccccc3OC)C2)c1 (stereo not drawn) | Trypanosoma cruzi | reporter mRNA translation, inhibitor, measured: capped polyadenylated Renilla luciferase mRNA | cell-free extract | concentration not given | baseline: control RNA | relative translation | 95.8% |
| O=C1Nc2ccccc2C1(c1c[nH]c2ccccc12)c1c[nH]c2ccccc12 | Clostridium sporogenes | microbial growth, absorbance |  |  |  | IC50 | > 50000 nM |
| O=C(c1cccc([N+](=O)[O-])c1)N1CCN(c2ccc(F)cc2)CC1 | Saccharomyces cerevisiae | cell growth | wild type |  |  | IC50 | > 200000 nM |
| CCN(CC)CC#CCNc1ccnc2cc(Cl)ccc12 | Plasmodium falciparum | parasite growth, LDH | 3D7 |  |  | IC50 | 60 nM and 47 nM |
| Nc1nc(-c2ccccc2)nc2[nH]nc(Nc3ccc(OC(F)(F)F)cc3)c12 | rhinovirus B5 | viral cytopathic effect | HeLa |  |  | IC50 | 140 nM |
| CCCCC(CC)COC(=O)CC(C(=O)OCC(CC)CCCC)S(=O)(=O)O.COC(=O)Nc1nc2cc(C(=O)c3ccc(F)cc3)ccc2[nH]1 (stereo not drawn) | Cryptococcus neoformans | EUCAST broth microdilution | clinical isolate | 72 h, 37 °C, RPMI with 2% glucose |  | IC50 | 312 nM |
| c1ccc2c(Cc3c[nH]c4ccccc34)c[nH]c2c1 | Clostridium sporogenes | microbial growth, absorbance |  |  |  | IC50 | > 50000 nM |
| O=C(c1cccc(I)c1)N1CCN(c2ccc(F)cc2)CC1 | Saccharomyces cerevisiae | microbial growth |  |  |  | IC50 | > 20000 nM |
| CC(=O)C(C)(c1c[nH]c2ccccc12)c1c[nH]c2ccccc12 | Clostridium sporogenes | microbial growth, absorbance |  |  |  | IC50 | > 50000 nM |
| Nc1nc(-c2ccccc2)nc2[nH]nc(Nc3cccc(F)c3F)c12 | rhinovirus B5 | viral cytopathic effect | HeLa |  |  | IC50 | 10 nM |
| O=C(c1ccc(Br)c([N+](=O)[O-])c1)N1CCN(c2ccccc2F)CC1 | Saccharomyces cerevisiae | microbial growth |  |  |  | IC50 | < 20000 nM |
| Cc1cccc(Nc2n[nH]c3nc(-c4ccc(F)cc4F)nc(N)c23)c1 | rhinovirus B5 | viral cytopathic effect | HeLa |  |  | IC50 | 26800 nM |
| OC[C@@H]1[C@@H](O)[C@H](O)[C@@H](O)CN1CCCCCOCc1ccc(-c2ccc3c(c2)OCCO3)cc1 | GBA1 R534H | inhibitor, 4MU-β-D-glucopyranoside |  | with: 4MU-β-D-glucopyranoside |  | IC50 | 250 nM |
| c1ccc(CC(c2c[nH]c3ccccc23)c2c[nH]c3ccccc23)cc1 | Clostridium sporogenes | microbial growth, absorbance |  |  |  | IC50 | > 50000 nM |
| O=C(N1CCc2ccccc21)n1ccnn1 | Phelipanche ramosa | seed germination, inhibitor |  | with: (±)-GR24 10 nM |  | IC50 | 14000 nM |
| O=C(N/N=C/c1ccc(-c2ccccc2Cl)o1)c1ccccc1 | Trypanosoma cruzi | reporter mRNA translation, inhibitor, measured: capped polyadenylated Renilla luciferase mRNA | cell-free extract | concentration not given | baseline: control RNA | relative translation | 105% |

| Structure (SMILES) | target or system | assay | test system | conditions | how to read | quantity | result |
| --- | --- | --- | --- | --- | --- | --- | --- |
| OC(Cn1cncn1)(Cn1cc(-[c-]2cccc2)nn1)c1ccc(F)cc1F.[Cl-].[Co+3].c1cc[cH-]c1 (racemic) | Trypanosoma cruzi | parasite growth, resazurin |  | 24 h, trypomastigote |  | IC50 | 4900 nM |
| Nc1nc(-c2ccccc2)nc2[nH]nc(Nc3ccccc3)c12 | rhinovirus B5 | viral cytopathic effect | HeLa |  |  | IC50 | 20 nM |
| O=C(c1ccc(Cl)cc1)N1CCN(c2ccc(F)cc2)CC1 | Saccharomyces cerevisiae | cell growth | wild type |  |  | IC50 | 27400 ± 3900 nM |
| COC1C=COC2(C)Oc3c(C)c(O)c4c(c3C2=O)C2=NC3(CCN(CC(C)C)CC3)NC2=C(NC(=O)C(C)=CC=CC(C)C(O)C(C)C(O)C(C)C(OC(=O)c2cccnc2)C1C)C4=O (stereo not drawn) | Mycobacteroides abscessus | intracellular growth, visual read | THP-1 derived macrophages, ATCC 19977 |  |  | IC50 | 39 nM |
| O=C(c1ccc(Cl)c([N+](=O)[O-])c1)N1CCN(c2ccc(F)cc2)CC1 | Saccharomyces cerevisiae | growth | ho∆/HO diploid control |  |  | IC50 | 12500 ± 2800 nM |
| CC(C)CC(c1c[nH]c2ccccc12)c1c[nH]c2ccccc12 | Clostridium sporogenes | microbial growth, absorbance |  |  |  | IC50 | > 50000 nM |
| CNCc1ccc2c(c1)C[C@H](CNC(=N)N)[C@H]2NC(=O)C(=O)Nc1ccc(Cl)c(F)c1 | HIV-1 | pseudovirus infection, Env pseudovirus neutralisation | TZM-bl, clade B transmitted/founder |  |  | IC50 | 612 nM |
| Cc1ccc(-c2nc(N)c3c(Nc4ccc(F)cc4)n[nH]c3n2)cc1 | rhinovirus B5 | viral cytopathic effect | HeLa |  |  | IC50 | 220 nM |
| O=C(c1ccccc1Br)N1CCN(c2ccc(F)cc2)CC1 | Saccharomyces cerevisiae | microbial growth |  |  |  | IC50 | > 20000 nM |
| C=CC(=O)N1CCCC(n2c(=O)c3ncccc3n(Cc3ccc(Oc4ccccc4)cc3)c2=O)C1 (stereo not drawn) | WAS (Homo sapiens, UniProt P42768) | thermal proteome profiling |  | replicate 2 |  | melting temperature | 46.5 °C |
| Nc1nc(-c2ccccc2)nc2[nH]nc(Nc3cc(F)c(F)c(F)c3)c12 | rhinovirus B5 | viral cytopathic effect | HeLa |  |  | IC50 | 260 nM |
| Cc1nc2c(NCc3cccc(S(C)(=O)=O)c3)nccn2c1-c1ccc(O)c(F)c1 | Rhinovirus A | viral replication, high-content imaging | RV-A16 |  |  | IC50 | 19 ± 8 nM |
| CCOc1ccc(Nc2n[nH]c3nc(-c4ccccc4)nc(N)c23)cc1 | rhinovirus B5 | viral cytopathic effect | HeLa |  |  | IC50 | 75100 nM |
| O=C(c1ccc(I)c([N+](=O)[O-])c1)N1CCN(c2ccccc2F)CC1 | Saccharomyces cerevisiae | microbial growth |  |  |  | IC50 | < 20000 nM |
| OC[C@@H]1[C@@H](O)[C@H](O)[C@@H](O)CN1CCCCCOCC12CC3CC(C1)CC(COCCCCCN1C[C@H](O)[C@@H](O)[C@H](O)[C@H]1CO)(C3)C2 | GBA1 R534H | inhibitor, 4MU-β-D-glucopyranoside |  | with: 4MU-β-D-glucopyranoside |  | IC50 | 340 nM |
| COc1ccc(Nc2n[nH]c3nc(-c4ccccc4)nc(N)c23)cc1OC | rhinovirus B5 | viral cytopathic effect | HeLa |  |  | IC50 | 6950 nM |
